Measurements gathered from unrelated publications.
Each numbered part is a random draw from the data of one study; scales do not carry over between parts.
Sequence of UniProt Q15831 (whole entry, looked up): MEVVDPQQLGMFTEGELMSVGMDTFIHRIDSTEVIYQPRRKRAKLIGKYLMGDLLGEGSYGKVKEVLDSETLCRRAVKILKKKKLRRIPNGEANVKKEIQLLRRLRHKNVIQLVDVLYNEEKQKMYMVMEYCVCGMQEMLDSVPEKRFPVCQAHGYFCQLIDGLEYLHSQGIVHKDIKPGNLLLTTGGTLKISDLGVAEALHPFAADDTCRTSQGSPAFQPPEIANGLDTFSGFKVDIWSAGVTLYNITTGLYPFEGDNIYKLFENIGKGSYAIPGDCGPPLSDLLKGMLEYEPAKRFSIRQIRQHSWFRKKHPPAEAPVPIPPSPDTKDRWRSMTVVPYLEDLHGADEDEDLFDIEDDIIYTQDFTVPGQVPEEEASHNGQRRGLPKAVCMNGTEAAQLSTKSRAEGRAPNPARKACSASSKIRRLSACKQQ
Sequence of UniProt P11802 (whole entry, looked up): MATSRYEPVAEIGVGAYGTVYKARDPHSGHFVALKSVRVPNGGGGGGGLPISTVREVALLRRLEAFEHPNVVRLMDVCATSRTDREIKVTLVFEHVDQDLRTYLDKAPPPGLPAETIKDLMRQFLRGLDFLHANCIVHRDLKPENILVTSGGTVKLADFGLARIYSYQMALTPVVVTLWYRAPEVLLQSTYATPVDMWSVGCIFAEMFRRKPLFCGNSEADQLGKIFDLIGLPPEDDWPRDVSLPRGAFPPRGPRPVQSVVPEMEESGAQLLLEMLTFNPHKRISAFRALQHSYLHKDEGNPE
Sequence of UniProt Q14164 (whole entry, looked up): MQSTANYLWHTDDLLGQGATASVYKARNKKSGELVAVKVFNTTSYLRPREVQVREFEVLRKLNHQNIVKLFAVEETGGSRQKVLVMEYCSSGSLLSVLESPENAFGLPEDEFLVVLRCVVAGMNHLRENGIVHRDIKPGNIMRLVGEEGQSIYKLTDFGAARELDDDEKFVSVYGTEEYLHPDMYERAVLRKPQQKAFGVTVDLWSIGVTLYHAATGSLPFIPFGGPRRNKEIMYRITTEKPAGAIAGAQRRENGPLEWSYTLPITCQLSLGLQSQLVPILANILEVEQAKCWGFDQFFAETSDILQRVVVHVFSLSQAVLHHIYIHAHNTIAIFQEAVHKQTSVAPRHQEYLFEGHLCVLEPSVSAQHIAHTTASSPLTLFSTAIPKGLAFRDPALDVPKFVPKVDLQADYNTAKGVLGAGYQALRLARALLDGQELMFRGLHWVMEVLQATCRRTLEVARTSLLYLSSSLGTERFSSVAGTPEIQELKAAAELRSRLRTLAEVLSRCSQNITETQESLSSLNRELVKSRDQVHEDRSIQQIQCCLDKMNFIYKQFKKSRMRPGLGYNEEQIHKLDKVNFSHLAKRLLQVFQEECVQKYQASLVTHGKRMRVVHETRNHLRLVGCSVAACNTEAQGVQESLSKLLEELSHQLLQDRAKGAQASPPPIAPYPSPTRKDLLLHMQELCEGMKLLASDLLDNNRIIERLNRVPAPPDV
Sequence of UniProt Q9UK32 (whole entry, looked up): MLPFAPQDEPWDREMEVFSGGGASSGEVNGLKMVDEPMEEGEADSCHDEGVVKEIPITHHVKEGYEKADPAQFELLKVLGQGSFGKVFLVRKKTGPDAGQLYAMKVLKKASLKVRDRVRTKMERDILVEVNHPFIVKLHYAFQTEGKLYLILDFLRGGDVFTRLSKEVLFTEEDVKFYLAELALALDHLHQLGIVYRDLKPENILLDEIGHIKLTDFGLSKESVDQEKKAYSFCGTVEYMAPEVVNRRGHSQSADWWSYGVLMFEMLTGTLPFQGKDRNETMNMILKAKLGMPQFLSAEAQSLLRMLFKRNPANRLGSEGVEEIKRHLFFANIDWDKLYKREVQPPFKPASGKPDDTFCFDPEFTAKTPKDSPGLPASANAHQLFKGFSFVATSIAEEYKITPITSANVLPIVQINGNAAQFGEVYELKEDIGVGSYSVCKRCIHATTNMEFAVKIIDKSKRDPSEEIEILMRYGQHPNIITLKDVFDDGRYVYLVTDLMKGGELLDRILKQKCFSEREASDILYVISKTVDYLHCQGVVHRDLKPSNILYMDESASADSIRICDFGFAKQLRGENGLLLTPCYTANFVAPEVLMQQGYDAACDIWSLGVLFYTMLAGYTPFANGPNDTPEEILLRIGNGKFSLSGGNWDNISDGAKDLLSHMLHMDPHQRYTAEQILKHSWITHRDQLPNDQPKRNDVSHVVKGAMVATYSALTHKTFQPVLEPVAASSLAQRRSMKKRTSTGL
Sequence of UniProt P45985 (whole entry, looked up): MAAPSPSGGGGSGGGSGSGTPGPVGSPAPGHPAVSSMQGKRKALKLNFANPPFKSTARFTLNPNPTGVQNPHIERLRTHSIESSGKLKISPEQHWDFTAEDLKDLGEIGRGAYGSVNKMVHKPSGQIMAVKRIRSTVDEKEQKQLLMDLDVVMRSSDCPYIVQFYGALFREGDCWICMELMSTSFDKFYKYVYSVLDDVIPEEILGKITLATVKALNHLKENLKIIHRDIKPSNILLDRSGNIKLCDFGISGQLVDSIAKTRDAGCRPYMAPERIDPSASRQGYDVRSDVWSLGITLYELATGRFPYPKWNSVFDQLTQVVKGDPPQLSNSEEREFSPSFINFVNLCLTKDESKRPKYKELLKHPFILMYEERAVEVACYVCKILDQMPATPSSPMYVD
Sequence of UniProt Q96RR4 (whole entry, looked up): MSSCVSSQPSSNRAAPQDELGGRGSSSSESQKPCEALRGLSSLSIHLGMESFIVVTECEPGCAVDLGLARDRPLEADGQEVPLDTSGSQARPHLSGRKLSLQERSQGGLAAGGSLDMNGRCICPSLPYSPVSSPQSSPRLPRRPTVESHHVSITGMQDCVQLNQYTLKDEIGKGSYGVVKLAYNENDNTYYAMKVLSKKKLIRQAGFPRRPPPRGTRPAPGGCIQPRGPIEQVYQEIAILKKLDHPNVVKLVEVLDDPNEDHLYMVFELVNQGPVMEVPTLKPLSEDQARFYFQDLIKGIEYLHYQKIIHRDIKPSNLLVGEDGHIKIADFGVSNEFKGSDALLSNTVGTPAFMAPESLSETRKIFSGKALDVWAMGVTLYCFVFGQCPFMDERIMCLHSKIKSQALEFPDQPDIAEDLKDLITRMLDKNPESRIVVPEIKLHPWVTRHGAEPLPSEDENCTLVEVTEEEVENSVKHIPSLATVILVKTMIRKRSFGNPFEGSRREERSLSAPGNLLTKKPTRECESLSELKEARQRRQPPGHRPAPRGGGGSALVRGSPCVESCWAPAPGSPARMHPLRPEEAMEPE
Sequence of UniProt P53350 (whole entry, looked up): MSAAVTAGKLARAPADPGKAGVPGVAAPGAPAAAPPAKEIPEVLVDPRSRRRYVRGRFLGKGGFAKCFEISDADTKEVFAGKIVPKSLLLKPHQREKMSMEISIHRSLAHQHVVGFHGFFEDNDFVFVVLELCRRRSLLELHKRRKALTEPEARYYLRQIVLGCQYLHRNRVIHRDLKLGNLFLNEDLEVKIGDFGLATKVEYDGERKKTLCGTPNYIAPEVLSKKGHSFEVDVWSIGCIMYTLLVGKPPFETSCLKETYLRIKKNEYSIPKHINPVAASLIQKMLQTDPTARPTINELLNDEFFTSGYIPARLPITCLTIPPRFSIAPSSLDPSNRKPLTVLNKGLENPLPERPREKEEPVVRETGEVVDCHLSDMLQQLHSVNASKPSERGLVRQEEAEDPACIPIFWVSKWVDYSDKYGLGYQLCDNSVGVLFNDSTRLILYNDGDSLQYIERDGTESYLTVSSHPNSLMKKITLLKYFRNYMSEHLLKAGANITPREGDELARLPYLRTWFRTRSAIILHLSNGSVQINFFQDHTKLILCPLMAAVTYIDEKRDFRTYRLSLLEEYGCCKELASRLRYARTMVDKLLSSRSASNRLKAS
Sequence of UniProt Q00535 (whole entry, looked up): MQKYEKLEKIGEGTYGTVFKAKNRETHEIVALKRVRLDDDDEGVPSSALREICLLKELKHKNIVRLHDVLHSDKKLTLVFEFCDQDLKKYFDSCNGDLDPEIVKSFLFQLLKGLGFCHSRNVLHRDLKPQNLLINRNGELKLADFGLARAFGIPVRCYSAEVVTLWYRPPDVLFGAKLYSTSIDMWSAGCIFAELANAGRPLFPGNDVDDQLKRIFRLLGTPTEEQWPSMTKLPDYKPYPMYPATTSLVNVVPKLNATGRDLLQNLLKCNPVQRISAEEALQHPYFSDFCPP
Sequence of UniProt P37173 (whole entry, looked up): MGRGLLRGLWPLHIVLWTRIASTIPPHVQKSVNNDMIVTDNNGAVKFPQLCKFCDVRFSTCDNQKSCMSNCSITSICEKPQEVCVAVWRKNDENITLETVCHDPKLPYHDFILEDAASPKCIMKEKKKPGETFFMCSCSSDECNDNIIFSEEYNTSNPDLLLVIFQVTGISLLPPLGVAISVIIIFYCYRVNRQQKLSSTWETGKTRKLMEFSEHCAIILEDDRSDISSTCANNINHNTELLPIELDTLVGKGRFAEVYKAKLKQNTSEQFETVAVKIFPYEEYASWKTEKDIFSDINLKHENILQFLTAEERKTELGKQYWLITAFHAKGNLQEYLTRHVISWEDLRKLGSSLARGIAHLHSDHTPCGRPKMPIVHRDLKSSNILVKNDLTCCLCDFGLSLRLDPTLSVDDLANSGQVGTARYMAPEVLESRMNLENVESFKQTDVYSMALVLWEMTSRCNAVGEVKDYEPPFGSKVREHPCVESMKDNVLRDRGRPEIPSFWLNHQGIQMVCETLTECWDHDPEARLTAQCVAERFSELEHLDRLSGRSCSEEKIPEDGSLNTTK
Sequence of UniProt P19784 (whole entry, looked up): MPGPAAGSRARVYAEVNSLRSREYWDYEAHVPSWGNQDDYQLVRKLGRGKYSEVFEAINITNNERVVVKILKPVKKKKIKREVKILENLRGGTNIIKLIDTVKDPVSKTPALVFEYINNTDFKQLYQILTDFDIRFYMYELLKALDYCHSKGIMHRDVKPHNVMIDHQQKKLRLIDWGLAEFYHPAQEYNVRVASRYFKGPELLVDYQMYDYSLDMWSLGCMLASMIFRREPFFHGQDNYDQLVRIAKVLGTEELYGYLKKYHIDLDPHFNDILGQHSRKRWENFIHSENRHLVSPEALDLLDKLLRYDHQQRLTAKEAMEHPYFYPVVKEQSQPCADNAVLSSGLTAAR

Study 1 — method: RNA Bind-n-Seq; molecule type: RNA; sample: in vitro; concentration: not given; setting: RNA with constant flanks, ends assumed; reference: input RNA pool; reading: higher = stronger binding
Target: RING finger protein unkempt homolog, zinc fingers 1-6, GST-SBP tag (UNK, Homo sapiens, UniProt Q9C0B0, residues 30-357)
All sequences stand within: GGGAGUUCUACAGUCCGACGAUC … CAACAGAGGAUUGAGCAUCA
Construct (chain): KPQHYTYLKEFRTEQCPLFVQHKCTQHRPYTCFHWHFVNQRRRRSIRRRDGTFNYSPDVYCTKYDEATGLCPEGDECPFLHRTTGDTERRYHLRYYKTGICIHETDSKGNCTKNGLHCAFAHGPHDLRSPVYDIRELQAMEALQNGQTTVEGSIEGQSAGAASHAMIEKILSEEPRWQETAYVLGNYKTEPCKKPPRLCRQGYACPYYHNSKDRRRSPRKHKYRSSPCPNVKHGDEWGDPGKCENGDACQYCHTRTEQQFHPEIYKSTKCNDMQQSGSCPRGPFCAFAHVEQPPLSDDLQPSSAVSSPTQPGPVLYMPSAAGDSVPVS
Strand	bound/input enrichment
AUGCCUUUUAAGUAUGGUGUUUGACAUUAACUUGUGAAAAGUCUGUGAUGUUUGUAUAUAUACCGCAUUUGAAGAUAAACUUUUGUGUUAAAAUCUUUUUAUAACUCCAACUUUUGUAGG	0.216 ratio
AACUUUGUACAUAGAUUUCCUUUUGUAGCUGUUUCAAUUGGCUUUGCUGUAAAUAAAAAGACCGAAUUUGGAGUUGUGUACAGUUGUGUGGAAGGCAAGAUGUACACUGCCAGAAAAGGA	0.778 ratio
GACAUUACCACUAUUAAACUUCUCAAUGAAACUAGAGACAUGUUGGAAAGCCCAGAUUUCCGUACAGUUUUGAAUACCUGUUUAAACCGAGGUUUUAGUAGACUUCUAGACAAUAUGGCU	4.99 ratio
AUUCCCUCCAAAAUCAUCAGUUUAUCGGUGGUGCCAGGGGGUUGUGGUAUCAAAGAGAAGGUCCGCCCGGGACUUCUGCAAGUAGGGCAGUCUUCAACAUCUGUGGGAGAUAAAGGAAUU	0.108 ratio
AAAAUAGUCCGAUGCCAUGAACAUAUAGAAAUCCUUACAGUAAAUGGAGAAUUACUCUUUUUCCGACAAAGAGAAGGGCCUUUUUAUCCAACCCUAAGAUUACUUCACAAAUAUCCUUUU	0.376 ratio
AGCCUGUGUGUAAAAUCCAGCUUGACUGCACCCCCCCUUUUUUGUUUCACUGUUUUCCCGUUCCGAAAUCUCAGAACUAACUAAUUUUACAGAACUUUUCUUAAUUUGCUCAUCAUGUUU	2.05 ratio
GGUUUCAAUGAAACAGAUGAUUUGAAGAGAGCUGAGAGUAUGCUUCAACAAGCAGAUAAAUCCGGUUGCAGACAGUUUGUUACCCCUGCUGAUGUUGUCAGUGGAAACCCCAAACUCAAC	0.0969 ratio
UUAAUCCCCUUUACUGCUCCCCCACUUCUCAUGGUAAUAACAAAGUCUUAUAUCCCCGUCCCCGCUUUCACUCAGAUGGCUUAUGGAGCCGGUUUCCUAGCUUUCUUGGGAGGGAUCAGA	0.271 ratio

Study 2 — effect on: enzyme activity; mode: inhibitor; concentration: 0.5 µM; reference: control
SMILES: CN(C)C[C@H]1CCn2c(c(C3=C(c4cn(C)c5ccccc45)C(=O)NC3=O)c3ccccc32)C1
target	remaining activity [%]
Calcium/calmodulin-dependent protein kinase kinase 2 (CAMKK2, Homo sapiens, UniProt Q96RR4)	108
Calcium/calmodulin-dependent protein kinase type II subunit delta (CAMK2D, Homo sapiens, UniProt Q13557)	82.4
STE20/SPS1-related proline-alanine-rich protein kinase (STK39, Homo sapiens, UniProt Q9UEW8)	102
TGF-beta receptor type-2 (TGFBR2, Homo sapiens, UniProt P37173)	98.5
Cyclin-dependent kinase 4, with cyclin D1 (CDK4, Homo sapiens, UniProt P11802)	86.9
Serine/threonine-protein kinase Chk2 (CHEK2, Homo sapiens, UniProt O96017)	95
Cyclin-dependent kinase 5, with p25 (CDK5, Homo sapiens, UniProt Q00535)	84.7
Inhibitor of nuclear factor kappa-B kinase subunit epsilon (IKBKE, Homo sapiens, UniProt Q14164)	78.8
Serine/threonine-protein kinase 10 (STK10, Homo sapiens, UniProt O94804)	26.6
Inhibitor of nuclear factor kappa-B kinase subunit beta (IKBKB, Homo sapiens, UniProt O14920)	105

Study 3 — concentration: 1 µM
SMILES: C[C@@]1(Cc2ccc(C#N)cc2)C(=O)N(c2cc(Cl)cc(Cl)c2)c2ncc(C(=O)NC3(c4nc(C5CCC5)no4)CC3)n21
target	effect on	method	remaining binding [%]
Epidermal growth factor receptor (EGFR, Homo sapiens, UniProt P00533, del746-750)	cell-free assay	competition with immobilised ligand	97
Ribosomal protein S6 kinase alpha-6, C-terminal kinase domain (RPS6KA6, Homo sapiens, UniProt Q9UK32)	cell-free assay	competition with immobilised ligand	100
Receptor-type tyrosine-protein kinase FLT3 (FLT3, Homo sapiens, UniProt P36888, D835V/ITD)	cell-free assay	competition with immobilised ligand	100
AP2-associated protein kinase 1 (AAK1, Homo sapiens, UniProt Q2M2I8)	binding		100
Serine/threonine-protein kinase STK11 (STK11, Homo sapiens, UniProt Q15831)	cell-free assay	competition with immobilised ligand	100
Proto-oncogene tyrosine-protein kinase Src (SRC, Homo sapiens, UniProt P12931)	cell-free assay	competition with immobilised ligand	98
Receptor-type tyrosine-protein kinase FLT3 (FLT3, Homo sapiens, UniProt P36888, D835H)	cell-free assay	competition with immobilised ligand	100
Hepatocyte growth factor receptor (MET, Homo sapiens, UniProt P08581, M1250T)	cell-free assay	competition with immobilised ligand	100
Casein kinase II subunit alpha' (CSNK2A2, Homo sapiens, UniProt P19784)	cell-free assay	competition with immobilised ligand	100
Ribosomal protein S6 kinase alpha-2, N-terminal kinase domain (RPS6KA2, Homo sapiens, UniProt Q15349)	cell-free assay	competition with immobilised ligand	100
Receptor-type tyrosine-protein kinase FLT3, autoinhibited (FLT3, Homo sapiens, UniProt P36888)	cell-free assay	competition with immobilised ligand	100
Dual specificity mitogen-activated protein kinase kinase 4 (MAP2K4, Homo sapiens, UniProt P45985)	cell-free assay	competition with immobilised ligand	100
Glycogen synthase kinase-3 beta (GSK3B, Homo sapiens, UniProt P49841)	cell-free assay	competition with immobilised ligand	100
Serine/threonine-protein kinase PLK1 (PLK1, Homo sapiens, UniProt P53350)	cell-free assay	competition with immobilised ligand	100

Study 4 — method: competition protein-binding microarray; molecule type: double-stranded DNA, one strand shown; sample: in vitro; concentration: 2 µM; added: Cbf1 competitor, 0.05 µM; reading: higher = stronger binding; all sequences stand within: … GTCTTGATTCGCTTGACGCTGCTG
Target: Phosphate system positive regulatory protein PHO4, full length, GST-tagged (PHO4, Saccharomyces cerevisiae, UniProt P07270, residues 1-312)
Setting: whole 60-bp probe, lowest competitor level
Residues (chain): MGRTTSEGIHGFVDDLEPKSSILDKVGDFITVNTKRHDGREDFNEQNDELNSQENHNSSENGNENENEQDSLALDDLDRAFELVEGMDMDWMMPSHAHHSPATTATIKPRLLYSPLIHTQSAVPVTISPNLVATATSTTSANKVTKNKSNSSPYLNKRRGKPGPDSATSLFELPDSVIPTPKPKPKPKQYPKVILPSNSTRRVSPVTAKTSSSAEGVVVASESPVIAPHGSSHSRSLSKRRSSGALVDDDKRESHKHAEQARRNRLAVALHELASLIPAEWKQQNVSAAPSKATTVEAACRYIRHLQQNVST
Strand	fluorescence intensity [a.u.]
GCGCCGGGCGCTGGCCACGTGCAGGTAGGAGCGCGG	17200
CGGGGTTAAGTTTGGCGAGTGGGTGGCTTGCAGCAG	4310
CGTTCTTGGGGACACCGCGTGCGATGCTCAGGATCG	10500
ACACTTCTGAGCGGCCACGTGTAGAGGGGTAAGCTA	16500
CTTTCCCGATCTTTTCACGTGGCATTAGCACATTTG	15100
CAGTTGTTACAGTTGCCCGTGAAGGTAGCAATGAAC	5700
ACTACTTTGAAGAATTGCGTGATGGATATCAAACTT	5560
CTTTCCCGATCTTGTAGTGTGGGTGTAGCACATTTG	5890

Excerpt of the above (study 3):
target	effect on	method	remaining binding [%]
Receptor-type tyrosine-protein kinase FLT3 (FLT3, Homo sapiens, UniProt P36888, D835H)	cell-free assay	competition with immobilised ligand	100
Hepatocyte growth factor receptor (MET, Homo sapiens, UniProt P08581, M1250T)	cell-free assay	competition with immobilised ligand	100
Casein kinase II subunit alpha' (CSNK2A2, Homo sapiens, UniProt P19784)	cell-free assay	competition with immobilised ligand	100
Ribosomal protein S6 kinase alpha-2, N-terminal kinase domain (RPS6KA2, Homo sapiens, UniProt Q15349)	cell-free assay	competition with immobilised ligand	100
Receptor-type tyrosine-protein kinase FLT3, autoinhibited (FLT3, Homo sapiens, UniProt P36888)	cell-free assay	competition with immobilised ligand	100
Dual specificity mitogen-activated protein kinase kinase 4 (MAP2K4, Homo sapiens, UniProt P45985)	cell-free assay	competition with immobilised ligand	100
